Results of several laboratories.
Parts stem from different laboratories: compare values within a part only. Changes are numbered by the printed parent chain.

Series 1
Target: CCNE2, cyclin fold, Cln2 fusion (human)
Technique: yeast growth competition, sequencing
Sample: yeast
Setting: weak parent motif
Relative to: not given
Reading: higher = stronger binding
Starting sequence: ORC1 docking peptide (human); PRARKRLELGNLG; partner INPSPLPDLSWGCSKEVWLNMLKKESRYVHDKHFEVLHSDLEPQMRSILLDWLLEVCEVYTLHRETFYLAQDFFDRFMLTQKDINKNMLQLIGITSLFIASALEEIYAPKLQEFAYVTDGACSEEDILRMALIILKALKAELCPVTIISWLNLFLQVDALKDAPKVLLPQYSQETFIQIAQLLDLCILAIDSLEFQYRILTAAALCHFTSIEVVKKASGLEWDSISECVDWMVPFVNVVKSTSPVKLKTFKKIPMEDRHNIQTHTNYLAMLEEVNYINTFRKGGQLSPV
`N11Y`: “normalised enrichment score” 0.834.
For `R4D`, “normalised enrichment score” read 0.295.
`G13F` — result for “normalised enrichment score”: 0.861.
For `R4M`, “normalised enrichment score” read 0.0345.
`G13Y` — result for “normalised enrichment score”: 0.522.
Under “normalised enrichment score”, `G10A` is recorded as 0.521.
For `R2L`, “normalised enrichment score” read -0.558.
Under “normalised enrichment score”, `R2D` is recorded as 0.665.
Under “normalised enrichment score”, `G10L` is recorded as 0.994.
Under “normalised enrichment score”, `R6A` is recorded as 0.287.
For `A3R`, “normalised enrichment score” read 0.3.
For `L7Y`, “normalised enrichment score” read 0.883.
Under “normalised enrichment score”, `K5P` is recorded as 0.882.
For `E8K`, “normalised enrichment score” read 0.549.
`R6Y`: “normalised enrichment score” 1.15.
For `G13W`, “normalised enrichment score” read -0.67.
Under “normalised enrichment score”, `L12M` is recorded as 0.86.
`L12Y`: “normalised enrichment score” -0.701.
`N11K`: “normalised enrichment score” 0.548.
`L12I`: “normalised enrichment score” 0.42.
Under “normalised enrichment score”, `G10F` is recorded as 0.293.
`E8N`: “normalised enrichment score” 1.15.
`R6C`: “normalised enrichment score” 0.728.
For `L12P`, “normalised enrichment score” read 0.905.
Under “normalised enrichment score”, `L12E` is recorded as 0.901.

Series 2
Target: Interferon regulatory factor 7, full length, phosphomimetic (IRF7, Homo sapiens, UniProt Q92985, residues 1-503, S101K/S471D/S472D/S475D/S476D/S477D/S483D/S484D/S487D)
Technique: protein-binding microarray
Form: double-stranded DNA, one strand shown
Sample: in vitro
Tested at: 250 nM
Setting: 60-bp whole probe
With: salmon DNA 0.4 mg/ml
Relative to: random background probes
Reading: higher = stronger binding
Constant ends, left off below: GCCTAGCAC … GTCTTGATTCGCTTGACGCTGCTG
Residues (chain): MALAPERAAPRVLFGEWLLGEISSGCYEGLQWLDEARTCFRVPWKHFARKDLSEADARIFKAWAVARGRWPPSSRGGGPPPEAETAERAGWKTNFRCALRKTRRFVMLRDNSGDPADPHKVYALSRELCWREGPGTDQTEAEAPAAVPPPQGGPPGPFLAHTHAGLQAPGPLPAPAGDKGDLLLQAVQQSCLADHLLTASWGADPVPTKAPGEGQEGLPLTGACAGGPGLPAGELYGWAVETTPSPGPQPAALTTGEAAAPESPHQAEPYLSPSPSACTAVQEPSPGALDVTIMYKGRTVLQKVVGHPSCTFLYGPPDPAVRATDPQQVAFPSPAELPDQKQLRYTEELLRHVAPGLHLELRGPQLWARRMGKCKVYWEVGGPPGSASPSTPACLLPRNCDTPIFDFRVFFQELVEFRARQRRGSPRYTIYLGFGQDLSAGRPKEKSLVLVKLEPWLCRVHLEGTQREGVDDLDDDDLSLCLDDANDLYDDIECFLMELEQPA
`TTACGTTTCGACTATCGGTTAGTGCTA` gave a log fluorescence of 2.64 z-score.
`TCATATTTGTCCCTATTACTGTGCTAG` has a log fluorescence of 1.39 z-score.
The log fluorescence of `TTAGTTTCCCTTTTCCTTTAGTGCTAG` is reported as 9.21 z-score.
`GACGATATCGGGTTTCGAGTCGTGCTA` has a log fluorescence of 6.23 z-score.
`GACGGACTGGGTATCAGGACGTGCTAG` has a log fluorescence of -0.779 z-score.
The log fluorescence of `TTAGGTTCCGGTTTCGGTAAGTGCTAG` is reported as 8.63 z-score.
`TTAGGTTTCGGGATTGGGTTAGTGCTA` gave a log fluorescence of 7.24 z-score.
With `TCACTTCCCAATTCTCTTACTGTGCTA` the log fluorescence was 2.08 z-score.
`GACGGACCGGGTTTCGGGACGTGCTAG` gave a log fluorescence of 2.81 z-score.
`TCATGTGTCAACTTTCTCACTGTGCTA` gave a log fluorescence of 0.0442 z-score.
`TTAGGTTTCCTTATCCTTGAGTGCTAG` gave a log fluorescence of 2.63 z-score.
`TCATTTGTCATCTATAATACTGTGCTA` gave a log fluorescence of 1.61 z-score.
`GATGTTTTAGGTCCCTTTTCGTGCTAG` gave a log fluorescence of 1.76 z-score.
`GACGGTTTTCTTTTCCTGACGTGCTAG` gave a log fluorescence of 3.48 z-score.
`GACGGGTTCGGGTATCGGGACGTGCTA` has a log fluorescence of 0.841 z-score.
With `TCATTTTTTTTTTTTTAACTGTGCTAG` the log fluorescence was 0.633 z-score.
For `TCATATATATCATTTAAACTGTGCTAG`, the log fluorescence was 0.726 z-score.
The log fluorescence of `TTAGGTATCGACAGTGGGTTAGTGCTA` is reported as -0.416 z-score.
With `TTAGGTTTCGTGACTGGGTTAGTGCTA` the log fluorescence was 2.19 z-score.
The log fluorescence of `GACGGTATCGGACTGCGGACGTGCTAG` is reported as -0.214 z-score.
`GACGGCATCGACTTTCGGGACGTGCTA` has a log fluorescence of -0.438 z-score.
`TTAGATTTCTGACTGGATTAGTGCTAG` has a log fluorescence of -0.0963 z-score.

Series 3
Target: Fragile X messenger ribonucleoprotein 1, C-terminal low-complexity region (Fmr1, Mus musculus, UniProt P35922)
Technique: RNA Bind-n-Seq
Form: RNA
Sample: in vitro
Tested at: 200 nM
Setting: whole 134-nt RNA, ends assumed
With: 150 mM KCl
Relative to: input library
Reading: higher = stronger binding
Constant ends, left off below: GGGAGUUCUACAGUCCGACGAUC … UGGAAUUCUCGGGUGUCAAGG
With `AGUCCUGUGCUACACAUCGUAUGUACCGAAUCGGGGCCCCGGGGCCCCGGCCCCGGGAAAGUAUUAUGUUACGCCGUUCGGAUCUGCACU` the log2 enrichment was -0.264.
With `UGGCCCUGGUGGCAUGCGGGGAGGAAGAGGUGGCCUCAUGGAUCGUGGUGGUCCCGGUGGAAUGUUCAGAGGUGGCCGUGGUGGAUACAG` the log2 enrichment was 0.107.
With `AAGUCCUGUGCUACACAUCGUAUGUACCGAAUCGGUUUUUGGGUUUUUGGUUUUUGGAAAGUAUUAUGUUACGCCGUUCGGAUCUGCACU` the log2 enrichment was -0.76.
With `CUCAAGUCCUGUGCUACACAUCGUAUGUACCGAAUCGGAGGAAAAAGGAAAGGAAAGUAUUAUGUUACGCCGUUCGGAUCUGCACUUCCA` the log2 enrichment was -0.221.
The log2 enrichment of `UAGUCACCUACUGCCACCUUCGAAAAACACGGAGAGCACCUACCCAGAGGAGAAGGUAGAUUUGGAGUAAGCCGCCGUCGACAUAAUUCC` is reported as 0.152.
The log2 enrichment of `UGGGAGAUGGAUUUUGUUUAUUUUUUUAGCUCAUUUCCAGGGGUGGGAAUUUUUUUUUAAUAUGUGUCAUGAAUAAAGUUGUUUUUGAAA` is reported as -0.369.
`UUUUACUUCUCCGCCAGGUGCUGUGCUCCAUCAUCGCCGGUACCUUGCACUAUCUCUACCUGGCCACCUUGACCUGGAUGCUGCUGGAGG` gave a log2 enrichment of -0.183.
`AGUCCUGUGCUACACAUCGUAUGUACCGAAUCGGAAAAAGGAAAAAAAGGAAAAAGGAAAGUAUUAUGUUACGCCGUUCGGAUCUGCACU` gave a log2 enrichment of -0.796.
The log2 enrichment of `GCAGGAAGUAAAAACAAAUGGAAAUGCUUCGGAUAGUGGCAGGGGUGGGGGUUGCUAAGGAAAGGGUGGGAUGGGAGAAAGUAAAGAGUU` is reported as 0.302.
`UCAAGUCCUGUGCUACACAUCGUAUGUACCGAAUCGGGGUUGGGGUUGGUUGGGAAAGUAUUAUGUUACGCCGUUCGGAUCUGCACUUCC` has a log2 enrichment of 0.784.
`CUCAAGUCCUGUGCUACACAUCGUAUGUACCGAAUCGGGCCGGGGCCGGCCGGAAAGUAUUAUGUUACGCCGUUCGGAUCUGCACUUCCA` has a log2 enrichment of -0.169.
With `GCAGGAAGUAAAAACAAAUGGAAAUGCUUCGGAUAGUGGCAGGGGUGGGGGUUGCUAAGGAAAGGGUGGGUUGGGAGUGGGUAAAGAGUU` the log2 enrichment was 0.338.
With `GUCCUGUGCUACACAUCGUAUGUACCGAAUCGGGUUUUUGGGUUUUUGGGUUUUUGGGAAAGUAUUAUGUUACGCCGUUCGGAUCUGCAC` the log2 enrichment was 0.193.
With `CAAGUCCUGUGCUACACAUCGUAUGUACCGAAUCGGAGGAAAAAGGAAAAAAAGGAAAGUAUUAUGUUACGCCGUUCGGAUCUGCACUUC` the log2 enrichment was -0.601.

Series 4
Target: ABI1, truncated, D143A, DHFR fusion (Arabidopsis thaliana)
Technique: DHFR PCA, deep sequencing
Sample: yeast
Setting: methotrexate growth selection, single substitutions
With: (+)-ABA 0.11 µM
Relative to: wild-type fitted maximum
Reading: higher = stronger binding
Starting sequence: PYL1, truncated, DHFR fusion (Arabidopsis thaliana); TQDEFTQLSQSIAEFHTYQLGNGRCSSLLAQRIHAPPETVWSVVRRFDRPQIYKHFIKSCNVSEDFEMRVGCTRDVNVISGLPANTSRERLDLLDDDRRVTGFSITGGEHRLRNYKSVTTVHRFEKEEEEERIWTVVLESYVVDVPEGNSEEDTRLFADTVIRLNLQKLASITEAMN; partner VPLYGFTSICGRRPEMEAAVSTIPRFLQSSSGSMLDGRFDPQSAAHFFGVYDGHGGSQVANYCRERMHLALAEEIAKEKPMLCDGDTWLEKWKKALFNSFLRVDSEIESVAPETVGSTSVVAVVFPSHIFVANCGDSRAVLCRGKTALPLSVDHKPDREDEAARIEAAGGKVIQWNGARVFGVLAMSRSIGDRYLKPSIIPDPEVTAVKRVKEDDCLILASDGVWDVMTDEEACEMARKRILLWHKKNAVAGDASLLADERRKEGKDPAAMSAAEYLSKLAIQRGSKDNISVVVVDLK
`A158L`: “relative binding score” 53.4%.
Under “relative binding score”, `F56V` is recorded as -2.39%.
`V136T`: “relative binding score” 1.25%.
`N85Q` — result for “relative binding score”: 59.3%.
For `S117A`, “relative binding score” read 4.02%.
For `P83Q`, “relative binding score” read 17.6%.
`N165G` — result for “relative binding score”: 5.67%.
`I172E`: “relative binding score” 6.49%.
For `S87P`, “relative binding score” read 11.9%.
`W41E` — result for “relative binding score”: -8.99%.
For `A30I`, “relative binding score” read 19.5%.
`V43Q` — result for “relative binding score”: -5.73%.
`E38A`: “relative binding score” 1.4%.
Under “relative binding score”, `H55A` is recorded as 43.1%.
For `Y18L`, “relative binding score” read 3.49%.
Under “relative binding score”, `S9A` is recorded as 41.6%.
`G107M` — result for “relative binding score”: -1.76%.
`R90A`: “relative binding score” -3.29%.

Series 5
Target: DBP, bZIP domain (human)
Technique: DHFR protein complementation
Sample: yeast
Setting: single substitutions, most at no-binding floor
Relative to: wild-type JUN-FOS pair
Reading: higher = stronger binding
Starting sequence: JUN, bZIP domain (human); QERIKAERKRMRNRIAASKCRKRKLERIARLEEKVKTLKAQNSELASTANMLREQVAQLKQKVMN; partner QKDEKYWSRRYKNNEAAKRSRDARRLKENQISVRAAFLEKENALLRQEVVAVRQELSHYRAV
For `L38K`, the binding fitness was -1.54 natural log.
The binding fitness of `A46E` is reported as -1.54 natural log.
The binding fitness of `V35W` is reported as -1.51 natural log.
For `K34A`, the binding fitness was -1.41 natural log.
With `A46L` the binding fitness was -1.49 natural log.
For `S47M`, the binding fitness was -1.13 natural log.
For `K36D`, the binding fitness was -1.46 natural log.
With `K39N` the binding fitness was -1.43 natural log.
`Q55A` has a binding fitness of -1.47 natural log.
`A46I` has a binding fitness of -1.39 natural log.
For `S43K`, the binding fitness was -1.08 natural log.
With `S43Q` the binding fitness was -1.41 natural log.
`M51H` gave a binding fitness of -1.56 natural log.
For `E33F`, the binding fitness was -1.3 natural log.
The binding fitness of `T37H` is reported as -1.3 natural log.
The binding fitness of `K39V` is reported as -1.42 natural log.
`N42C` gave a binding fitness of -1.53 natural log.
With `Q55K` the binding fitness was -1.22 natural log.

Mixed results
`PhoQ, residues 284 288 289 292 302 303 NLCILV` has a fold induction of 6.83 (PhoP, residues 12 14 15 18 19 MHTVL (Escherichia coli, UniProt P23836); Sort-seq, measured: YFP reporter; E. coli; PhoQ-PhoP variant library, with: 10 µM Mg2+; relative to: high Mg2+ state, higher = stronger signaling).

Some of these lines once more (series 4):
`I172E`: “relative binding score” 6.49%.
Under “relative binding score”, `H55A` is recorded as 43.1%.
For `S87P`, “relative binding score” read 11.9%.
`V136T`: “relative binding score” 1.25%.
`V43Q` — result for “relative binding score”: -5.73%.
`W41E` — result for “relative binding score”: -8.99%.
`A158L`: “relative binding score” 53.4%.
`G107M` — result for “relative binding score”: -1.76%.
